Measurements collected from several papers.
A part holds a random share of what one study measured. Values joined by “and” are separate records of one study, mostly repeats; a detail may differ.
UniProt Q6P2M8, sequence (whole entry, looked up): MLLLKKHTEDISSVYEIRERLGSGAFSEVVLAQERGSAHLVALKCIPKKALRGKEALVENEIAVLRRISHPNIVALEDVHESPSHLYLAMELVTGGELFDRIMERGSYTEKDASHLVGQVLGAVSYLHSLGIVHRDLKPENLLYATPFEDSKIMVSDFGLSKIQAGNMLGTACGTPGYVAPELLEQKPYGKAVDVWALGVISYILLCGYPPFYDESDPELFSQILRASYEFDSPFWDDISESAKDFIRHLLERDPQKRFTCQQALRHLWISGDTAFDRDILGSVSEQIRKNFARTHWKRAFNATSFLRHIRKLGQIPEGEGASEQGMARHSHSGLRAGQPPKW
UniProt Q8IU85, sequence (whole entry, looked up): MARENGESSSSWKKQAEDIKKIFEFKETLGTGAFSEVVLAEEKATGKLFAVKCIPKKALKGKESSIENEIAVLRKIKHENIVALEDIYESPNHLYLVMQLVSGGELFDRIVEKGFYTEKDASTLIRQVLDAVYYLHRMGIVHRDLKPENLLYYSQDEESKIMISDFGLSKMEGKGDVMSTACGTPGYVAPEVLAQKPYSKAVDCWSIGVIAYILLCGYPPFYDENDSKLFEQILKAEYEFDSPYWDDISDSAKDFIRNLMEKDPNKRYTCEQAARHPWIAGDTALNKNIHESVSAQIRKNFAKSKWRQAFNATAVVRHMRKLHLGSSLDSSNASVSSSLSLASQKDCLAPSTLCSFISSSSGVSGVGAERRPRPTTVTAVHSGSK
UniProt Q8N4C8, sequence (whole entry, looked up): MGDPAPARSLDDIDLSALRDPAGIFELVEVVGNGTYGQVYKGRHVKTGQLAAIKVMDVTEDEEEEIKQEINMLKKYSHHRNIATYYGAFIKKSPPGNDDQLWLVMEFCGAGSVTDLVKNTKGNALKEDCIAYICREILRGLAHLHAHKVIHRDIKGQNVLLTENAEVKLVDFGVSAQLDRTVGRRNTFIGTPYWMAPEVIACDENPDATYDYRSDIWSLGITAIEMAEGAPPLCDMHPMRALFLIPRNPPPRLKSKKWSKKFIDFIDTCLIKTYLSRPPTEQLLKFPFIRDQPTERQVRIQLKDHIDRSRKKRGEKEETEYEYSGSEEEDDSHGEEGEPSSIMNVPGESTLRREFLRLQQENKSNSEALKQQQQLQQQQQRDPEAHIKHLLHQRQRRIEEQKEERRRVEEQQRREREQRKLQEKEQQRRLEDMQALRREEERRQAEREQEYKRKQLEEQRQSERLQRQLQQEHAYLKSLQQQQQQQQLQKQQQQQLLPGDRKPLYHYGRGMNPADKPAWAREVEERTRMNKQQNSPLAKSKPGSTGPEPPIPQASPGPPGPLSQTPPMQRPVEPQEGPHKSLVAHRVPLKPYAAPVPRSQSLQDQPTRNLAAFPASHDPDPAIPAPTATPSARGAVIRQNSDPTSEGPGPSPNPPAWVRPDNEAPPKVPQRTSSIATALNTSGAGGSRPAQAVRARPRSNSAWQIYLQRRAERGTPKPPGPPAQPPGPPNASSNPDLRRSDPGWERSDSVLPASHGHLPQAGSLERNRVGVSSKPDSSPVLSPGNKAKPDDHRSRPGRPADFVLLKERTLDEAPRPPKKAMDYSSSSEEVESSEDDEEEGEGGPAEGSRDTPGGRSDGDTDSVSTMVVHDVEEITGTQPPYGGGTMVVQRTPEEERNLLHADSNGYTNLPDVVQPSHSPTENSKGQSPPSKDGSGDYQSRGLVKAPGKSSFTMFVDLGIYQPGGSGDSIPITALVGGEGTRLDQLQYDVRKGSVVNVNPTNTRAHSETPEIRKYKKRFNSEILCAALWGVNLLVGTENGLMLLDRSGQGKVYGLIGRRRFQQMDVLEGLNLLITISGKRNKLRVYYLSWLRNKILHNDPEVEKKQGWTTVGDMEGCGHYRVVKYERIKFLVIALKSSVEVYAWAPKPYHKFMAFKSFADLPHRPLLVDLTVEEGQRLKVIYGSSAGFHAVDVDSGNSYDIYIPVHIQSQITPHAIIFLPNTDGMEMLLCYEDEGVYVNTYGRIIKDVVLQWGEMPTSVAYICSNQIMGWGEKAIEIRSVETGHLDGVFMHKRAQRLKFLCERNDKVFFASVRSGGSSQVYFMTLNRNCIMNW

Study 1
Target: Eukaryotic initiation factor 4A-I (EIF4A1, Homo sapiens, UniProt P60842)
UniProt P60842, sequence (whole entry, looked up): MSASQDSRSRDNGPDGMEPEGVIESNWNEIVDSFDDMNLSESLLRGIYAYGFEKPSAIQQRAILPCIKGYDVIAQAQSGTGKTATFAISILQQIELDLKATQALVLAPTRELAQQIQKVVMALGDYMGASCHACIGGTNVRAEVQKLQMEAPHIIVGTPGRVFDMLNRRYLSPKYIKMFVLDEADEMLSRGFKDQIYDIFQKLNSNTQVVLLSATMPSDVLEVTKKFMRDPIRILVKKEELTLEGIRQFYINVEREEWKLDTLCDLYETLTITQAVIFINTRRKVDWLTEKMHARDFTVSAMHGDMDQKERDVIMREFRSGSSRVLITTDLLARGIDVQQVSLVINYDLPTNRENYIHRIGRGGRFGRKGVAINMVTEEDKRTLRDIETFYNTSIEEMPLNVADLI
Read-out: RNA clamping
Method: fluorescence polarization
Concentration: concentration not given
Together with: FAM-labelled poly r(AG)8 RNA
Reading: higher = more clamping
Endpoint: fluorescence polarization change
COc1cc(O)cc2c1[C@]1(O)[C@H](O)[C@H](C(=O)N(C)OC)[C@@H](c3ccccc3)[C@]1(c1ccc(Br)cc1)O2: 87.3 mP and 58.3 mP
CCCCN[C@@]12C(=O)[C@H](C(=O)OC)[C@@H](c3ccccc3)[C@]1(c1ccc(OC)cc1)Oc1cc(OC)cc(OC)c12: 11.3 mP
COC(=O)[C@@H]1[C@@H](O)[C@@]2(O)c3c(OC)cc(OS(=O)(=O)c4ccc(C)cc4)cc3O[C@@]2(c2ccc(Br)cc2)[C@H]1c1ccccc1: 7.3 mP
COc1ccc([C@@]23Oc4cc(OC)c(F)c(OC)c4[C@]2(O)c2nc4n(c(=O)c2[C@H]3c2ccccc2)CCC4)cc1: 41.1 mP
C=CCN[C@@]12C(=O)[C@H](C(=O)OC)[C@@H](c3ccccc3)[C@]1(c1ccc(OC)cc1)Oc1cc(OC)cc(OC)c12: -10.3 mP
COC(=O)[C@@H]1[C@@H](c2ccccc2)[C@]2(c3ccc(OC)cc3)Oc3cc(OC)cc(OC)c3[C@@]23NC(c2ccc(N(C)C)cc2)=N[C@@]13O: 46.2 mP
COc1ccc([C@@]23Oc4cc(OC)cc(OC)c4[C@]2(O)[C@H](O)[C@H](C(=O)c2ccc(C)o2)[C@H]3c2ccccc2)cc1: 15.7 mP
COC(=O)[C@H]1C(=O)[C@@]2(NN(C)C)c3c(OC)cc(OC)cc3O[C@@]2(c2ccc(OC)cc2)[C@@H]1c1ccccc1: 2.3 mP
COc1ccc([C@]23Oc4cc(OC)cc(OC)c4[C@](O)([C@H](C(=O)OCc4ccccc4)[C@H]2c2ccccc2)[C@@H]3O)cc1: 2.5 mP

Study 2
Target: DNA polymerase theta, ATPase domain (POLQ, Homo sapiens, UniProt O75417)
UniProt O75417, sequence (whole entry, unmodified, looked up): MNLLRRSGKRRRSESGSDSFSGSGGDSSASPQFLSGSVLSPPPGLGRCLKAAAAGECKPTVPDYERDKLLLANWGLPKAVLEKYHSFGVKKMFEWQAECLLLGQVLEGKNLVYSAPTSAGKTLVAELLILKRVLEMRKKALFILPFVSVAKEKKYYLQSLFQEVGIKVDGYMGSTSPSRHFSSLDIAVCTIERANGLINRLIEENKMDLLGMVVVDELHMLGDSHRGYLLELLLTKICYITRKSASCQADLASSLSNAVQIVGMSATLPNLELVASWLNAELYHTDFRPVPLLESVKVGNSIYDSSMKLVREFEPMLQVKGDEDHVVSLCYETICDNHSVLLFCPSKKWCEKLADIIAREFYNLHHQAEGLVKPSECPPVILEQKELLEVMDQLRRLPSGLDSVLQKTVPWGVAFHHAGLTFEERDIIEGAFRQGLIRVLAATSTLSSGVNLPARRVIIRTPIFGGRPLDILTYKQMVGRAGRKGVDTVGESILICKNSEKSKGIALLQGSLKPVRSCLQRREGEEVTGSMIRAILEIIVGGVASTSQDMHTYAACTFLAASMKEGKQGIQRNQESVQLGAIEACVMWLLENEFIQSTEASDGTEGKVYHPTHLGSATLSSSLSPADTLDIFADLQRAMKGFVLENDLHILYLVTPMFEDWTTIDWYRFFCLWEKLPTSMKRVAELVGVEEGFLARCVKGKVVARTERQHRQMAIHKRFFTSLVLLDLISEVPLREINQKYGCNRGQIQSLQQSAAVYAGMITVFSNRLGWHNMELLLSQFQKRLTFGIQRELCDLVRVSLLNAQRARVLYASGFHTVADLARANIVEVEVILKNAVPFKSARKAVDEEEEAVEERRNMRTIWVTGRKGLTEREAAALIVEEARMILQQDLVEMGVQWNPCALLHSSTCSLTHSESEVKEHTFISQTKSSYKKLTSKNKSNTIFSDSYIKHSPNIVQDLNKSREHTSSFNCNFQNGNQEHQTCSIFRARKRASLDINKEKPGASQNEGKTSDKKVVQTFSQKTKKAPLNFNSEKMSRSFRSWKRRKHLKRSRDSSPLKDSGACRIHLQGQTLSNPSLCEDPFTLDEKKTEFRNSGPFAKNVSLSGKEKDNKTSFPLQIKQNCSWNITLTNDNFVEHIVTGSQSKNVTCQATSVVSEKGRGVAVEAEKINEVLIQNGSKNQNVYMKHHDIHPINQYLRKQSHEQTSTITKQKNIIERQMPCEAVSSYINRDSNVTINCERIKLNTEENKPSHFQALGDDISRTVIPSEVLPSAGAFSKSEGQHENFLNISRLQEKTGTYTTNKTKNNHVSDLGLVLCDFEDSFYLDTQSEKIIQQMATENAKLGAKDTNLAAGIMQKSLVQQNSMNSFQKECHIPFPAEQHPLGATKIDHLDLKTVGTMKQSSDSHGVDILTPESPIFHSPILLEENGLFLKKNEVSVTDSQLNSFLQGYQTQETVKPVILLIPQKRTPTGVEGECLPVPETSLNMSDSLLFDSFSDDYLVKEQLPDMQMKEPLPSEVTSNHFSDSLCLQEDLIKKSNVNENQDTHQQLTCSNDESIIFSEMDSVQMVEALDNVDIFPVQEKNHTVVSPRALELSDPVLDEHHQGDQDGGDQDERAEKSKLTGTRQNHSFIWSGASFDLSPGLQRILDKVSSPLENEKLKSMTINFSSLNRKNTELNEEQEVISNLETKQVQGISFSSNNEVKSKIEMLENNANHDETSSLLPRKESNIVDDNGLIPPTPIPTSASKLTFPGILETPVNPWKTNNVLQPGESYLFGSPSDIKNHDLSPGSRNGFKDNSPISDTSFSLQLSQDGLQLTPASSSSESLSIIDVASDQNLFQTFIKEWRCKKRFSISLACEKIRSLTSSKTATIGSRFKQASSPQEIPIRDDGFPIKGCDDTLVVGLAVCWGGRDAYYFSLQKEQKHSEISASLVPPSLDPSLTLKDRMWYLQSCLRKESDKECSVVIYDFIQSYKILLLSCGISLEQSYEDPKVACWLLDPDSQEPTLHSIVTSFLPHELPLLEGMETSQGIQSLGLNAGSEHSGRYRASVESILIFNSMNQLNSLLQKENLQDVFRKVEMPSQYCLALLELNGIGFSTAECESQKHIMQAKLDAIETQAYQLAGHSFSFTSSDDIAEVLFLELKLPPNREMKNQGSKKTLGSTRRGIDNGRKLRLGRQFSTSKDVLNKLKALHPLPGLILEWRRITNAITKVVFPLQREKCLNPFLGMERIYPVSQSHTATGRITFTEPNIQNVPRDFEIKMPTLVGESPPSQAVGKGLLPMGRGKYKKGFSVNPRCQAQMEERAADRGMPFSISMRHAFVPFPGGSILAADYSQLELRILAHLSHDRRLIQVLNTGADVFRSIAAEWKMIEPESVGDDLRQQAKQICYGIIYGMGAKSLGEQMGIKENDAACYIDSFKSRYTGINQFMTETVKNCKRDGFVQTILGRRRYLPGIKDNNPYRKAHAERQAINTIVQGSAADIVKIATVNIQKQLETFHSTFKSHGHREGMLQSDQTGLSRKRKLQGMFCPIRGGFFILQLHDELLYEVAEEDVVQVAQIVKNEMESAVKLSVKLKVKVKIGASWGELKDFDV
Read-out: enzyme activity
Action: inhibitor
Concentration: 77 µM
Relative to: untreated
Endpoint: remaining activity
CC(C)(C)c1nc2c3cc[nH]c(=O)c3c3cc(F)ccc3c2[nH]1: 103%
Cc1cc2c(cc1Cl)N(C(=O)Nc1cccc3ncccc13)CC2: 96.1%
CCC[C@H](NC(=O)/C(C#N)=C/c1cccc(Br)n1)c1ccccc1: 83.9%
COc1ccc2c(OC)c3ccoc3nc2c1OC: 104%
CCNc1nc2c(ncn2[C@H]2C[C@H](O)[C@@H](CO)O2)c(=O)[nH]1: 98.3%
Nc1ccn([C@@H]2O[C@H](CO)[C@@H](O)[C@@H]2O)c(=O)n1: 96.1%
Cc1cccc(C#Cc2ccccc2)n1: 82.9%
C=CC[N+](C)(C)c1ccc(CCC(=O)CCc2ccc([N+](C)(C)CC=C)cc2)cc1: 90.3%
COc1cc2c(Oc3ccc4[nH]c(C)cc4c3F)ncnc2cc1OCCCN1CCCC1: 105%
CC1CC(OC(=O)C(O)c2ccccc2)CC(C)(C)N1C (stereo not drawn): 95.5%
COc1cccc2c1[C@@H]1CN(CCCCn3c(=O)[nH]c4c(sc5ncc(-c6ccccc6)nc54)c3=O)C[C@@H]1CO2: 102%
CC(C)CC(=O)Nc1n[nH]c2c1CN(C(=O)C1CCN(C)CC1)C2(C)C: 100%
Cc1nc2c(OCc3ccccc3)cccn2c1CC#N: 106%

Study 3
SMILES: C[C@@H](N)[C@H]1CC[C@H](C(=O)Nc2ccncc2)CC1
Read-out: enzyme activity
Action: inhibitor
Concentration: 0.5 µM
Relative to: control
Endpoint: remaining activity
Hepatocyte growth factor receptor (MET, Homo sapiens, UniProt P08581): 94.2%
Cyclin-dependent kinase 9, with cyclin K (CDK9, Homo sapiens, UniProt P50750): 107%
Mitogen-activated protein kinase 1 (MAPK1, Homo sapiens, UniProt P28482): 99.6%
Misshapen-like kinase 1 (MINK1, Homo sapiens, UniProt Q8N4C8): 90%
Calcium/calmodulin-dependent protein kinase type 1B (PNCK, Homo sapiens, UniProt Q6P2M8): 93.9%
Tyrosine-protein kinase TXK (TXK, Homo sapiens, UniProt P42681): 98.9%
Myosin-IIIb (MYO3B, Homo sapiens, UniProt Q8WXR4): 83.5%
Serine/threonine-protein kinase Nek3 (NEK3, Homo sapiens, UniProt P51956): 85.1%
Ribosomal protein S6 kinase alpha-4 (RPS6KA4, Homo sapiens, UniProt O75676): 96.8%
Mitogen-activated protein kinase 14 (MAPK14, Homo sapiens, UniProt Q16539): 105%
Dual specificity mitogen-activated protein kinase kinase 1 (MAP2K1, Homo sapiens, UniProt Q02750): 100%
Serine/threonine-protein kinase PLK3 (PLK3, Homo sapiens, UniProt Q9H4B4): 86.5%
Vascular endothelial growth factor receptor 2 (KDR, Homo sapiens, UniProt P35968): 88.8%

Study 4
SMILES: O=C(Nc1ccccc1)Nc1cccc(Oc2ccc3nccn3n2)c1
Concentration: 1 µM
Endpoint: remaining binding
Tyrosine-protein kinase JAK2 (JAK2, Homo sapiens, UniProt O60674); competitive binding panel; JH1 catalytic domain; relative to: vehicle: 93%
Calcium/calmodulin-dependent protein kinase type 1D (CAMK1D, Homo sapiens, UniProt Q8IU85); competitive binding panel; relative to: vehicle: 97%
Mitogen-activated protein kinase 9 (MAPK9, Homo sapiens, UniProt P45984); competitive binding; JNK2: 100%
Casein kinase I isoform gamma-1 (CSNK1G1, Homo sapiens, UniProt Q9HCP0); competitive binding panel; relative to: vehicle: 100%
Serine/threonine-protein kinase OSR1 (OXSR1, Homo sapiens, UniProt O95747); competitive binding panel, measured: OSR1; relative to: vehicle: 100%
Tyrosine-protein kinase Blk (BLK, Homo sapiens, UniProt P51451); competitive binding panel; relative to: vehicle: 100%
Cyclin-G-associated kinase (GAK, Homo sapiens, UniProt O14976); competitive binding panel; relative to: vehicle: 100%
Ephrin type-B receptor 3 (EPHB3, Homo sapiens, UniProt P54753); competitive binding panel; relative to: vehicle: 100%
Calcium/calmodulin-dependent protein kinase type 1B (PNCK, Homo sapiens, UniProt Q6P2M8); competitive binding; CAMK1B: 100%
Ephrin type-B receptor 2 (EPHB2, Homo sapiens, UniProt P29323); competitive binding panel; relative to: vehicle: 97%
Serine/threonine-protein kinase Nek6 (NEK6, Homo sapiens, UniProt Q9HC98); competitive binding panel; relative to: vehicle: 100%
Ankyrin repeat and protein kinase domain-containing protein 1 (ANKK1, Homo sapiens, UniProt Q8NFD2); competitive binding panel; relative to: vehicle: 100%
SRSF protein kinase 3 (SRPK3, Homo sapiens, UniProt Q9UPE1); competitive binding panel; relative to: vehicle: 71%

Repeated from above (study 3):
Mitogen-activated protein kinase 14 (MAPK14, Homo sapiens, UniProt Q16539): 105%
Vascular endothelial growth factor receptor 2 (KDR, Homo sapiens, UniProt P35968): 88.8%
Myosin-IIIb (MYO3B, Homo sapiens, UniProt Q8WXR4): 83.5%
Misshapen-like kinase 1 (MINK1, Homo sapiens, UniProt Q8N4C8): 90%
Cyclin-dependent kinase 9, with cyclin K (CDK9, Homo sapiens, UniProt P50750): 107%
Dual specificity mitogen-activated protein kinase kinase 1 (MAP2K1, Homo sapiens, UniProt Q02750): 100%
Mitogen-activated protein kinase 1 (MAPK1, Homo sapiens, UniProt P28482): 99.6%
Serine/threonine-protein kinase Nek3 (NEK3, Homo sapiens, UniProt P51956): 85.1%
